Measurements collected from several papers.
Several values in a cell are separate wells, animals, samples, runs or records. Numbers after ± are the reported error.

| SMILES | cell line | assay | conditions | scale | quantity | value |
| --- | --- | --- | --- | --- | --- | --- |
| Br.N=c1n(CC(=O)c2ccc([N+](=O)[O-])cc2)c2ccccc2n1Cc1ccccc1Cl | LDR | silenced CMV-GFP reporter derepression, qHTS | – | – | efficacy | 55% |
| Cc1c(C)c2c(c(C)c1O)CCC(C)(COc1ccc(CC3SC(=O)NC3=O)cc1)O2 (centres unmarked) | iPSC-derived hepatocytes B1 | cell viability | 48 h, differentiation day 23 | – | IC50 | 72 µM |
| COC(=O)COc1c(Cc2cc(C(C)(C)CC(C)(C)C)cc(-n3nc4ccccc4n3)c2OCC(=O)OC)cc(C(C)(C)CC(C)(C)C)cc1-n1nc2ccccc2n1 | Vero | MTT | 100 µM, 48 h | – | growth inhibition | 10.5 ± 0.99% |
| CC/C(=N\NC(=O)C(C)Nc1ccccc1)c1ccc(O)c(C)c1O (centres unmarked) | SK-OV-3 | Western blot | 10 µM, 1 h, 3D gellan gum culture, unit not given | relative to: DMSO | LATS band intensity | 0.21 ± 0.22 |
| O=C1CN(c2nc(-c3ccccc3)c3cc(Cl)ccc3n2)c2ccccc2N1 | LDR | silenced CMV-GFP reporter derepression, qHTS | – | – | efficacy | 26% |
| CCCN1CCN(c2ccc3[nH]c(-c4ccc5[nH]c(-c6cc(OC)c(OC)c(OC)c6)nc5c4)nc3c2)CC1 | SNB-19 | SRB | 10 µM, 48 h | – | growth percent | 69.8% |
| Cc1ccc(CNC(=O)Cn2cc(CSc3nc4ccccc4[nH]3)nn2)cc1 | Caco-2 | MTT | 125 ppm | – | cytotoxicity | 86.9% |
| COc1cnc2cccc(N3CCc4c(cc(Cn5ccnc5C)cc4-c4cn(C)nc4C(F)(F)F)C3=O)c2c1 | Pfeiffer | cell growth | 120 h | – | EC50 | 4.4 µM |
| CC[C@H](C)[C@H](NC(=O)[C@H](CCCCN)NC(=O)[C@@H](NC(=O)[C@H](CCCNC(=N)N)NC(=O)[C@@H](NC(=O)[C@@H](CCCNC(=N)N)NC(=O)[C@@H](CCCNC(=N)N)NC(=O)[C@@H](CCCNC(=N)N)NC(=O)[C@@H](CCCNC(=N)N)NC(=O)[C@@H](CCCNC(=N)N)NC(=O)[C@H](N)CCCNC(=N)N)[C@@H](C)O)[C@@H](C)O)C(=O)N[C@@H](CC(=O)O)C(=O)N[C@@H](Cc1c[nH]c2ccccc12)C(=O)NC(C)(C)C(=O)N[C@@H](CCCCN)C(=O)N[C@H](C(=O)N[C@@H](CC(C)C)C(=O)NC(C)(C)C(=O)N[C@@H](CCCCN)C(=O)NCCCCCC(=O)NCCCC[C@H](NC(=O)CCCCCNC(=O)[C@H](CCCCN)NC(=O)C(C)(C)NC(=O)[C@H](CC(C)C)NC(=O)[C@@H](NC(=O)[C@H](CCCCN)NC(=O)C(C)(C)NC(=O)[C@H](Cc1c[nH]c2ccccc12)NC(=O)[C@H](CC(=O)O)NC(=O)[C@@H](NC(=O)[C@H](CCCCN)NC(=O)[C@@H](NC(=O)[C@H](CCCNC(=N)N)NC(=O)[C@@H](NC(=O)[C@@H](CCCNC(=N)N)NC(=O)[C@@H](CCCNC(=N)N)NC(=O)[C@@H](CCCNC(=N)N)NC(=O)[C@@H](CCCNC(=N)N)NC(=O)[C@@H](CCCNC(=N)N)NC(=O)[C@H](N)CCCNC(=N)N)[C@@H](C)O)[C@@H](C)O)[C@@H](C)CC)[C@@H](C)CC)C(N)=O)[C@@H](C)CC | SK-MEL-5 | microscopy | concentration not given | – | time to cell rounding | ~15 min |
| Cc1cc(NS(=O)(=O)c2ccc(NC(=O)/C(C#N)=C/c3ccc(N4CCCCC4)cc3)cc2)no1 | HCT-116 | qRT-PCR, refers to: Bcl-2 | concentration not given | relative to: untreated | mRNA level decrease | 3.3 fold |
| COc1cc2ncnc(Nc3ccc(Oc4ccccc4)cc3C)c2cc1OC.O=C(O)C(F)(F)F | MeWo (NF1) | cell viability, resazurin | 0.1 µM, 72 h, together with: trametinib 0 nM | – | average fractional effect | -0.0992% |
| CCn1cc(-c2cc(Cn3ccnc3)cc3c2CCN([C@H](c2cc(OC)ccn2)C2CC2)C3=O)c(C(F)(F)F)n1 | GSU | cell growth | 120 h | – | EC50 | 0.674 µM |
| Nc1cccc2c1C(=O)N(C1CCC(=O)NC1=O)C2=O (centres unmarked) | RPMI-8226 | flow cytometry, refers to: CD73 | concentration not given | relative to: comparator compound alone | surface marker level | 47.6% |
| O=C(C[C@@H](C(F)F)n1ccc(F)n1)N1CCC(O)(Cn2cnc3c(cnn3-c3ccc(F)cc3)c2=O)CC1 | CHP-212 parental (wild-type USP7) | PI flow cytometry | 0.3 µM, 24 h | – | cells in G2/M phase | 13.8% and 7.64% and 10.9% |
| Cc1ccc(NC(=O)c2c(C)nc3sc(C(=O)NC4CCCC4)c(N)c3c2-c2ccco2)c(C)c1 | LDR | silenced CMV-GFP reporter derepression, qHTS | – | – | efficacy | 38% |
| CC(C)(N)c1cc(C(=O)N[C@@H]2CCc3ccc(Oc4ccnc5c4CCC(=O)N5)cc3C2)cc(C(F)(F)F)c1 | SK-MEL-239 C4 | ERK phosphorylation, inhibitor, Western blot, refers to: p-ERK/total ERK | 1 h | – | IC75 | 0.389 µM |
| COc1ccc2c(C)cc(SCC(=O)N(C)C3CCS(=O)(=O)C3)nc2c1 (centres unmarked) | LDR | silenced CMV-GFP reporter derepression, qHTS | – | – | efficacy | 66% |
| CC#CC(=O)N1CC[C@@H](n2cc(-c3ccc(Oc4c(F)cccc4F)cc3)c3c(N)n[nH]c(=O)c32)C1 | REC-BTK^C481S | cell growth | 72 h | – | GI50 | 10.8 µM |
| Cc1nc(N(Cc2ccccc2)c2ccc3c(c2)/C(=C/c2ccccc2)C(=O)N3Cc2ccccc2)c2ccccc2n1 (mixture of isomers) | LLC | mitochondrial membrane potential, JC-1 flow cytometry | 2 µM | – | depolarized cells | 17.6% |
| Cc1ccc(CNc2nc(Cl)nc3nc[nH]c23)o1 | HeLa | splicing reporter, refers to: GLA | 10 µM, 18 h | – | GFP/RFP ratio | 0.48 |
| O=C(COc1ccc(Cl)cc1)NC12CC(c3nnc([C@H]4C[C@@H](OC(F)(F)F)C4)o3)(C1)C2 | H4 expressing GFP-TDP-43 fragment | – | 1 µM | – | phospho-eIF2α level | no effect |
| Cn1cnc2c1c(=O)n(CC(=O)Nc1c(Cl)cccc1Cl)c(=O)n2C | Vero | MTT | 125 µg/mL | – | cytotoxicity | 6.15% |
| O=P1(C2CCCCC2)CCCCC1 | SW480 | annexin V/PI flow cytometry | IC50, 72 h | – | necrotic cells | 1.95% |
| CC(C)NCC(O)c1ccc(O)c(O)c1 (centres unmarked) | mouse ventricular cardiomyocytes | – | dose not given, 0.291 s | – | sarcomere length | 1.8 µm |

| SMILES | cell line | assay | conditions | scale | quantity | value |
| --- | --- | --- | --- | --- | --- | --- |
| Cn1cc(-c2ccc(-c3cncc(Cl)c3N3CCC4(CCNC4=O)CC3)cc2)cn1 | COLO 205 | gene expression, microarray, refers to: CORO1A mRNA | concentration not given, 6 h | relative to: untreated cells | log2 fold change | -3.54 |
| O=C(/C=C/C=C/C=C/C1CCCCC1)NC1=C[C@@](O)(/C=C/C=C/C=C/C(=O)NC2=C(O)CCC2=O)[C@@H]2O[C@@H]2C1=O | SW480 | cell growth, CellTiter-Glo | 78 h | – | GI50 | 15.1 µM |
| Cc1cc(Nc2ncc(Cl)c(Nc3ccccc3S(=O)(=O)C(C)C)n2)c(OC(C)C)cc1C1CCNCC1 | CLB-BAR | phosphoproteomics LC-MS/MS, refers to: KIAA1549 phosphorylation | 200 nM, 60 min | relative to: untreated | log2 fold change | -2.23 |
| Cc1nn(-c2nc3c(F)cc(F)cc3s2)c(O)c1C(c1ccc(C(F)(F)F)cc1)c1c(C)nn(-c2nc3c(F)cc(F)cc3s2)c1O | RAW-ISG | IFN luciferase reporter | 5 µM, together with: HT-DNA | – | inhibition | 73.3% and 73.2% and 72.5% and 75.9% and 74.8% and 75.6% |
| O=c1[nH]nc(OCCCc2ccc(Cl)cc2)c(NCc2cccnc2)c1Br | HEK-293T | RNA-seq GSEA, refers to: HALLMARK_MYOGENESIS | concentration not given | direction not given | normalized enrichment score | -0.951 |
| O=c1c2ccccc2nc(COc2ccccc2)n1/N=C/c1c[nH]c2ccccc12 | LDR | silenced CMV-GFP reporter derepression, qHTS | – | – | efficacy | 109% |
| CSc1cc(Oc2ccnc3[nH]c(=O)cnc23)ccc1NC(=O)Nc1cc(C(C)(C)C)nn1-c1ccccc1 | patient-derived cell line clone A | RPPA | 1 µM, 4 h | relative to: DMSO | phospho-Akt Ser473/total ratio | 0.43 |
| CC(=O)Nc1cccc(-n2c(=O)n(C3CC3)c(=O)c3c(Nc4ccc(I)cc4F)n(C)c(=O)c(C)c32)c1 | MeWo (NF1) | cell viability, resazurin | 50.00 nM, 72 h | relative to: DMSO | fractional effect | 0.478 and 0.452 |
| CCn1cc(-c2cc(Cn3ccoc3=N)cc3c2CCN([C@@H](C)c2cc(OC)ccn2)C3=O)c(C(F)(F)F)n1 | DOHH-2 | cell growth, inhibitor | 120 h | – | EC50 | 1.43 µM |
| CC(=O)c1nn(-c2ccc(Cl)cc2)/c(=N/N=C(\C)c2ccc(NC(=O)c3ccc(C)cc3)cc2)s1 | MCF7 | – | 2.5 µM | – | toxicity | 92.1% |
| Nc1ncnc2c1ncn2[C@@H]1O[C@H](COP(=O)(O)OP(=O)(O)OP(=O)(O)O)[C@@H](O)[C@H]1O | PMA-differentiated Pam3CSK4-primed THP-1 GSDMD knockout | inducer, ELISA | concentration not given | – | IL-1beta release | 331 pg/mL and 359 pg/mL and 232 pg/mL |
| CCCCCCCCCCCCCCCC(NCc1cccc(C)c1)=C1C(=O)OC(CO)C1=O (centres unmarked) | G2-synchronized tsFT210 cells | flow cytometry | 50 µM, 4 h, 32 °C, release from G2 arrest | – | G2/M phase cells | 38.3% |
| O=C(NC[C@H](O)CN1CCc2ccccc2C1)c1cc(NC2COC2)ncn1 | HeLa | co-immunoprecipitation, western blot, refers to: SNRPB with GFP-SART3 | 10 µM, 3 days | – | protein interaction | decreased |
| CCc1ccc(NC(=O)Nc2c[nH]c3ccccc23)cc1 | RAW-ISG | RT-qPCR, refers to: IFNB1 | 10 µM, unit not given, together with: poly(I:C) | relative to: vehicle | mRNA level | 1.33 and 1.14 and 0.93 |
| CC/C(=N\NC(=O)NCc1cccc(O)c1)c1ccc(O)c(C)c1O | SK-OV-3 | Western blot, refers to: LATS | 10 µM, 1 h, 2D culture, unit not given | relative to: β-actin | protein level | 0.98 ± 0.43 |
| CCNc1nc(Nc2ccc(F)c(Cl)c2)c2ccccc2n1 | Vero | MTT | 250 µg/mL | – | cytotoxicity | 79.4% |
| CCCCc1oc2ccc(NS(C)(=O)=O)cc2c1C(=O)c1ccc(OCCCN(CCCC)CCCC)cc1 | human embryonic stem cell aggregates | mRNA level, microarray, refers to: GDF10 | 0.5 µM, 120 h | relative to: untreated, up-regulated | fold change | 1.9 fold |
| C=CC1=C(C)c2cc3[n-]c(cc4nc(cc5[n-]c(cc1n2)c(C)c5C=C)C(C)=C4CCC(=O)O)c(CCC(=O)O)c3C.[Zn+2] | SH-SY5Y | RNA-seq, refers to: HSPB8 mRNA | 5 µM, 5 h | relative to: untreated cells | fold change | 1.85 |
| [Cl-].c1csc([I+]c2cccs2)c1 | Caco-2 | – | 10 µM, 1 h | relative to: control | extracellular H2O2 production | 12 ± 4% |
| CCOn1c(=O)c[n+]([O-])c2ccccc21 | LDR | silenced CMV-GFP reporter derepression, qHTS | – | – | efficacy | 170% |
| Cn1c(Nc2nc3ccc(C(F)(F)F)cc3s2)nc2cc(C(=O)NCCOCCO)ccc21 | SH-SY5Y | RNA-seq, refers to: ANKRD1 mRNA | 5 µM, 5 h | relative to: untreated cells | fold change | 3.5 |
| NCc1cc2c(cc1F)C(=O)N(C1CCC(=O)NC1=O)C2 (centres unmarked) | HCC cell lines | CellTiter-Glo | 50% viability drop, of 19 lines | – | number of sensitive cell lines | 13 |
| NNc1nc(-c2ccc(Cl)cc2)c2c(NC(=O)c3ccccc3)nnc-2[nH]1 | TK-10 | SRB | 10 µM, NCI60 single-dose screen | relative to: untreated | cell growth | 139% |
